Measurements pooled from the literature.
Parts stem from different laboratories: compare values within a part only. Several values in a cell are separate wells, animals, samples, runs or records.

Sample 1 — cell line: A-375; tested at: 100 µM; time: 36 h; endpoint: viability
SMILES = OC[C@H]1O[C@@H](n2cnc3c(O)ncnc32)[C@H](O)[C@@H]1O; value = 88% and 113%
SMILES = CCOC(N)=O; value = 119%
SMILES = N=C(N)NC(=O)c1nc(Cl)c(N)nc1N; value = 112% and 105%
SMILES = N[C@H](Cc1ccccc1)C(=O)O; value = 118%
SMILES = O=C1OC2(c3ccc(O)cc3Oc3cc(O)ccc32)c2ccccc21; value = 190%
SMILES = COc1cc(C(C)=O)ccc1OCCCN1CCC(c2noc3cc(F)ccc23)CC1; value = 94.4%
SMILES = N#Cc1ccc(C(c2ccc(C#N)cc2)n2cncn2)cc1; value = 108%
SMILES = C[C@@H]1CC(=O)NN=C1c1ccc(NN=C(C#N)C#N)cc1; value = 27.2%
SMILES = CN(C)CC[C@@H](c1ccc(Cl)cc1)c1ccccn1; value = 96.1%

Sample 2 — observed: enzyme activity; mode: inhibitor; tested at: 77 µM; reference: untreated; endpoint: remaining activity
Target: DNA polymerase theta, ATPase domain (POLQ, Homo sapiens, UniProt O75417)
Chain of UniProt O75417 (whole entry, unmodified, looked up): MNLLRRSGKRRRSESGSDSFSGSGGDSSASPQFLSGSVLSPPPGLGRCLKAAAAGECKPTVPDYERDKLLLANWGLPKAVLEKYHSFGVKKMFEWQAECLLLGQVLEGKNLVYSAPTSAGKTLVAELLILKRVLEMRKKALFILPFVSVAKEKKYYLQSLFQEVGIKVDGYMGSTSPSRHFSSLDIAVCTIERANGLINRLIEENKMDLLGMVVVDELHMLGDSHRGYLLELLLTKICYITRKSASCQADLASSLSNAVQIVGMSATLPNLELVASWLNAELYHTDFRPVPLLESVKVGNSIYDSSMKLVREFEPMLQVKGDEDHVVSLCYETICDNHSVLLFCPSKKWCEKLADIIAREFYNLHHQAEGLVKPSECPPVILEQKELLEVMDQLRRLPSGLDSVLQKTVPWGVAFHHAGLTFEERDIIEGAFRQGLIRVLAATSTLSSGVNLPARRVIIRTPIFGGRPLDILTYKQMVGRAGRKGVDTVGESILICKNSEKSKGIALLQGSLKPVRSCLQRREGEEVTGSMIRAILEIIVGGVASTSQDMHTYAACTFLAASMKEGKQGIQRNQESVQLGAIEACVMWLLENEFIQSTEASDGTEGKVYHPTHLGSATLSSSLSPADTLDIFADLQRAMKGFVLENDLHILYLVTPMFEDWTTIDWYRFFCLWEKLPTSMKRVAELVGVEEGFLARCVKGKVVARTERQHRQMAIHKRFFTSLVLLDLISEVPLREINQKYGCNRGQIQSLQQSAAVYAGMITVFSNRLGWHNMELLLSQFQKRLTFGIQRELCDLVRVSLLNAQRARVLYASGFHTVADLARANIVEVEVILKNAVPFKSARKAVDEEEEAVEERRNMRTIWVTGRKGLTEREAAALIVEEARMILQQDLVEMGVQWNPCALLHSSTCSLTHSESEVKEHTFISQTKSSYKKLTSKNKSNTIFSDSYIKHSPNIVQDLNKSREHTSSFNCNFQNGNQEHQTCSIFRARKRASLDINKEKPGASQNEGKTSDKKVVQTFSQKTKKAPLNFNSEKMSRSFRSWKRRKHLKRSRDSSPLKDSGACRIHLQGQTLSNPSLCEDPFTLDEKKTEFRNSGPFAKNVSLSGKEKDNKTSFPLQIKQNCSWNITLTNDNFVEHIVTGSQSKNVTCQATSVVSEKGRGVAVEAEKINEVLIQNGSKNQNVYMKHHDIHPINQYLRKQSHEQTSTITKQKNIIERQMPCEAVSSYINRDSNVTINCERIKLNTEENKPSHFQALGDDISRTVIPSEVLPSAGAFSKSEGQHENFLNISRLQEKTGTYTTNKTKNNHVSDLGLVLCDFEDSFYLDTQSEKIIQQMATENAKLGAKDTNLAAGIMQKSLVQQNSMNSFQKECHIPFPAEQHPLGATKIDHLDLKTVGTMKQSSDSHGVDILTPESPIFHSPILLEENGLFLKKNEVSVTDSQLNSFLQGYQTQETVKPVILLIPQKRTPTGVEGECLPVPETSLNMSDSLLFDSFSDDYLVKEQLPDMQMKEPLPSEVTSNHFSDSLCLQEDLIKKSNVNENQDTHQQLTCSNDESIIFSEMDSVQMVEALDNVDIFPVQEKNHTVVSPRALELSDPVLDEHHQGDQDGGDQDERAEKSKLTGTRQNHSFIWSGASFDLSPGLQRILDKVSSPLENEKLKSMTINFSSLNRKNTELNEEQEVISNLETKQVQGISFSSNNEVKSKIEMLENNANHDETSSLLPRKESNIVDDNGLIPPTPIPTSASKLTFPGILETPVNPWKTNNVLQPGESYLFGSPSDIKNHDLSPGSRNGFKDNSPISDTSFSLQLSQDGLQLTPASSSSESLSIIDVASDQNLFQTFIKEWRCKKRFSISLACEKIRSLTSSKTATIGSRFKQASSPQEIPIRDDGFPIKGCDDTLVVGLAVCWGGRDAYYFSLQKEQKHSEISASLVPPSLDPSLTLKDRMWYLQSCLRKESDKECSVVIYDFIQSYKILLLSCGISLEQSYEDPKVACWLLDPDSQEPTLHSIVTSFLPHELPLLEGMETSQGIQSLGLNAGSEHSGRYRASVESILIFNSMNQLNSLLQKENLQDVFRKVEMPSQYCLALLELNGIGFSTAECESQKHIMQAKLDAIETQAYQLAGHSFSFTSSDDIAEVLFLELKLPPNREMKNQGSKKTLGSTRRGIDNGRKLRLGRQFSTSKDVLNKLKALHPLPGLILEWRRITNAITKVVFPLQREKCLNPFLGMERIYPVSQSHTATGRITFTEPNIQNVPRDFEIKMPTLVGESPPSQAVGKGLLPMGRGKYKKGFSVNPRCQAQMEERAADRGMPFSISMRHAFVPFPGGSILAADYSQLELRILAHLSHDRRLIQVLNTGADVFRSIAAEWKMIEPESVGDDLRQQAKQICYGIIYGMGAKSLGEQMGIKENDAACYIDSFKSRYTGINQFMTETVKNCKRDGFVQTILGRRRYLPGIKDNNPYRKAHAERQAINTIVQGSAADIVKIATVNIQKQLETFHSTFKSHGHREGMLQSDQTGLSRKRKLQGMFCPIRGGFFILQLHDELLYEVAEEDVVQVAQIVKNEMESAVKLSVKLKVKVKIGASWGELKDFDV
SMILES = CCn1cc(C(=O)O)c(=O)c2cc3c(cc21)OCO3; value = 97.5%
SMILES = Cc1cc2cc3c(C)cc(=O)oc3c(C)c2o1; value = 104%
SMILES = Nc1ccc(S(=O)(=O)c2ccc(N)cc2)cc1; value = 99.8%
SMILES = N#Cc1cc(CN2CCC(Nc3ncnc4sc(Cl)cc34)CC2)ccc1F; value = 104%
SMILES = COc1ccccc1-c1cc(Nc2cccc(CS(N)(=O)=O)c2)ncn1; value = 97%
SMILES = C[C@]12CC[C@@H]3c4ccc(O)cc4CC[C@H]3[C@@H]1CCC2=O; value = 104% and 105% and 100%
SMILES = COc1cc2nccc(Oc3ccc(NC(=S)NC(=O)c4ccccc4C)cc3)c2cc1OC; value = 111%

Sample 3 — observed: cell-free assay; tested at: 10 µM; endpoint: inhibition
Target: 5-hydroxytryptamine receptor 1E (HTR1E, Homo sapiens, UniProt P28566)
Chain of UniProt P28566 (whole entry, looked up): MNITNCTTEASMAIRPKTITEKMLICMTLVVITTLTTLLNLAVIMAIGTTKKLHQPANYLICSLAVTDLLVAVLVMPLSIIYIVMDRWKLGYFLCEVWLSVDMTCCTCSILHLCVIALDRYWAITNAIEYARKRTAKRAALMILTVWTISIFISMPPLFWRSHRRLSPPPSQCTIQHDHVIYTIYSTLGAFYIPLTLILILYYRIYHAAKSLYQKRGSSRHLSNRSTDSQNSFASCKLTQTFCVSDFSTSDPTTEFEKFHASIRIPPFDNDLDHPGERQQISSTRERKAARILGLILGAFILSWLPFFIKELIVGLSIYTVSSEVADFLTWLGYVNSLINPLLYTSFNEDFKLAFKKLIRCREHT
Structure (SMILES) = O=C(NCCCC1CCCCC1)c1ccc(CNC(=O)c2cnn(-c3ccccc3)c2C(F)(F)F)cc1; value = -6.92%
Structure (SMILES) = c1ccc(C2CCN(c3cnc4c(N5CCOCC5)nccn34)CC2)cc1; value = 5.84%
Structure (SMILES) = Cc1c(N2CCCC2)nc2ccc(Br)cc2c1C(=O)NC[C@H](CCC(=O)O)c1ccccc1Cl; value = -44.4%
Structure (SMILES) = CN1C(=O)[C@@H](N2CCc3cn(Cc4ccccc4)nc3C2=O)COc2ccccc21; value = -1.55%
Structure (SMILES) = C[C@H](c1ccnc(Nc2nc3ccc(-c4cc(N(C)C)ncn4)cc3[nH]2)c1)N1CCN(C(=O)CC(F)(F)F)CC1; value = 13.6%
Structure (SMILES) = Cc1cc(C)c(-n2ccn3nc(-c4cccnc4)cc23)cc1NC(=O)c1cc(C#N)cc(S(F)(F)(F)(F)F)c1; value = 3.57%
Structure (SMILES) = O=C(NNS(=O)(=O)c1ccccc1F)c1cc(F)cc(-c2ccccn2)c1; value = 13.8%
Structure (SMILES) = Nc1nc(NCc2ccccc2)nc(-c2ccccc2CO)n1; value = -20%
Structure (SMILES) = CN(C)c1ncnc(-c2ccc3nc(Nc4cc(CN5CCN(C(=O)CC(F)(F)F)CC5)ccn4)[nH]c3c2)c1Cl; value = 29.3%
Structure (SMILES) = CS(=O)(=O)N1CCCC(NC(=O)[C@H](CCC2CCCCC2)NC(=O)c2ccc(CNC(=O)c3cnc4ccccn34)cc2)C1 (some centres unmarked); value = -16.9%
Structure (SMILES) = CNC(=O)Nc1ccc2c(c1)[C@]1(CC2)OC(=O)N(CC(=O)N(Cc2ccc(F)cc2)[C@@H](C)C(F)(F)F)C1=O; value = 0.33%
Structure (SMILES) = Cc1ncc(-c2cc(Cl)ccc2F)cc1-n1c(=O)n(CC(N)=O)c2ccccc21; value = -22.1%
Structure (SMILES) = CCCOc1ccc([C@H]2[C@H](C(=O)O)[C@@H](c3ccc4c(c3)OCO4)CN2CC(=O)Nc2c(CC)cccc2CC)cc1; value = -15.3%
Structure (SMILES) = Nc1c(C(=O)NCc2ccc(C(=O)NCCCC3CCCCC3)cc2)cnn1-c1ccccc1; value = 1%
Structure (SMILES) = O=C1c2ccc(Nc3ccc(F)cc3F)cc2CCc2ccc(OC[C@H](O)CO)cc21; value = 18.8%
Structure (SMILES) = CN1CCN(c2ccnc(NCCc3ccccc3)n2)CC1; value = 19.5%
Structure (SMILES) = CCOc1ccc(S(=O)(=O)Nc2ccc(Cl)cc2C#Cc2cnc(C(=O)O)cc2OC)c2ncccc12; value = -51.7%
Structure (SMILES) = CN1CCN(C(=O)C(C)(C)c2ccc(C(=O)Nc3cn4cc(-c5cc(C(C)(C)C)cc(C(C)(C)C)c5)ccc4n3)cc2)CC1; value = 60.5%
Structure (SMILES) = CC(=O)Nc1ncc(CN2CCC[C@H](Cc3cc(C)nc(C)c3)C2)s1; value = -11%
Structure (SMILES) = C[C@H](c1ccc(F)cc1)N(Cc1ccc(Cl)c(C(=O)O)c1)C(=O)c1cnc2ccccc2c1; value = -24.9%
Structure (SMILES) = O=C(Nc1cnc(Oc2ccc(F)cc2)nc1)N1CCc2ncccc2[C@@H]1c1ccc(F)cc1; value = -8.08%
Structure (SMILES) = CCC(=NO)C(C)=Cc1ccc(F)c(C)c1; value = 4.47%
Structure (SMILES) = O[C@]1(C(F)(F)F)CCCC[C@H]1Nc1ccc(F)cc1; value = -10.4%

Sample 4 — observed: enzyme activity; mode: inhibitor; tested at: 10 µM; endpoint: inhibition
Target: Calcium/calmodulin-dependent protein kinase type II subunit alpha (CAMK2A, Homo sapiens, UniProt Q9UQM7)
Chain of UniProt Q9UQM7 (whole entry, looked up): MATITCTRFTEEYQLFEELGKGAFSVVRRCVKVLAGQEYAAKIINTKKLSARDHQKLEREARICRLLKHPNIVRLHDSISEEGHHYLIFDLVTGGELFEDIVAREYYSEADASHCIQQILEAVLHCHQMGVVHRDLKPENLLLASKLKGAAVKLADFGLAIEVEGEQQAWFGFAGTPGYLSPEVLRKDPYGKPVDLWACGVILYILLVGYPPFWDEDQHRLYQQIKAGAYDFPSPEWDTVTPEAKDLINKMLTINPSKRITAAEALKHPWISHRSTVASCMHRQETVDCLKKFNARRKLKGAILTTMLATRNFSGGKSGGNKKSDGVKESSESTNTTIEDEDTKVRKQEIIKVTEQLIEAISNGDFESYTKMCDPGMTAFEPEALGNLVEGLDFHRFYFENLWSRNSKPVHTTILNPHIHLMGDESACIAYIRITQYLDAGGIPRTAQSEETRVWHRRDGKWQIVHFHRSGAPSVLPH
Structure (SMILES) = C[C@H](CCC(=O)O)[C@H]1CC[C@H]2[C@@H]3C=CC4=CC(=O)CC[C@]4(C)[C@H]3CC[C@]12C; value = -15%
Structure (SMILES) = CCOc1nc2cccc(C(=O)OC(C)OC(=O)OC3CCCCC3)c2n1Cc1ccc(-c2ccccc2-c2nn[nH]n2)cc1 (centres unmarked); value = -3%
Structure (SMILES) = CC(C)(C)c1ccc(CN2CCN(C(c3ccccc3)c3ccc(Cl)cc3)CC2)cc1 (centres unmarked); value = -11%
Structure (SMILES) = CCN[C@H]1CN(CCCOC)S(=O)(=O)c2sc(S(N)(=O)=O)cc21; value = -2%
Structure (SMILES) = COc1cccc(N(C)C(=S)Oc2ccc3c(c2)CCCC3)n1; value = -3%
Structure (SMILES) = C=C1C(=O)O[C@H]2C1CC[C@@](C)(O)C13C=CC(C)(C21)C1(C3)C(=O)O[C@@H]2C3C(C)=CCC3[C@](C)(O)[C@H](OC(C)=O)CC21 (some centres unmarked); value = -26%
Structure (SMILES) = O=C(Cn1cnnn1)N[C@@H]1C(=O)N2C(C(=O)O)=C(CSc3nncs3)CS[C@H]12; value = -3%
Structure (SMILES) = O=C(OC1Cc2c(O)cc(O)cc2OC1c1cc(O)c(O)c(O)c1)c1cc(O)c(O)c(O)c1 (centres unmarked); value = -63%
Structure (SMILES) = Cc1coc2c1C(=O)c1ccc3c(c1C2=O)CCCC3(C)C; value = 24%
Structure (SMILES) = O=c1cc(CO)occ1O; value = -17%
Structure (SMILES) = OCC1CCCCO1 (centres unmarked); value = -13%

Some of these lines once more (sample 2):
SMILES = Cc1cc2cc3c(C)cc(=O)oc3c(C)c2o1; value = 104%
SMILES = Nc1ccc(S(=O)(=O)c2ccc(N)cc2)cc1; value = 99.8%
SMILES = N#Cc1cc(CN2CCC(Nc3ncnc4sc(Cl)cc34)CC2)ccc1F; value = 104%
SMILES = COc1ccccc1-c1cc(Nc2cccc(CS(N)(=O)=O)c2)ncn1; value = 97%
SMILES = C[C@]12CC[C@@H]3c4ccc(O)cc4CC[C@H]3[C@@H]1CCC2=O; value = 104% and 105% and 100%
SMILES = COc1cc2nccc(Oc3ccc(NC(=S)NC(=O)c4ccccc4C)cc3)c2cc1OC; value = 111%
